Published values from different studies.
Every numbered part comes from another study and shows a few of its results, in no order.

Series 1
Target: Interferon regulatory factor 5, full length, phosphomimetic (IRF5, Homo sapiens, UniProt Q13568-2, residues 1-514, S451D/S453D/S456D/S462D)
Method: protein-binding microarray
Form: double-stranded DNA, one strand shown
Medium: in vitro
Tested at: 940 nM top
Notes: 60-bp whole probe
Added: salmon DNA 0.4 mg/ml
Baseline: random background probes
Direction: higher = stronger binding
Constant ends, left off below: GCCTAGCAC … GTCTTGATTCGCTTGACGCTGCTG
| Oligonucleotide | fitted relative affinity [z-score] |
| --- | --- |
| GAAGGTTTCGGTTCCGGGACGTGCTAG | 11.9 |
| GACGACTTCAGTCTCGAGACGTGCTAG | 0.77 |
| TTGTAAATCTTTTTCCCTATGTGCTAG | 0.537 |
| GACGATATAAGTTTCGAGACGTGCTAG | 2.96 |
| TGTTTTTCATTGTTTTTCATCGTGCTA | 2.01 |
| GACGGTTACGACACTGGGGACGTGCTA | -0.27 |
| TCATGTTTGGTCCTGATACTGTGCTAG | 0.365 |
| GACGGACTGGGGTATCAGGACGTGCTA | 0.0859 |
| TTAGGATTGGGGTTTCGGTTAGTGCTA | 6.12 |
| GCCGAACTGGGGTTTCGAGACGTGCTA | 2.49 |
| GACGGACTGGGTATCGGCACGTGCTAG | 0.998 |
| TTAGATATCAGTTTCGATTGGTGCTAG | 8.55 |
| AATCATTTTAGTTTTCATTAGTGCTAG | 1.41 |
| TTAGGTATTCTACTGCTTTAGTGCTAG | 0.21 |
| GGATATATATCATTTAATTAGTGCTAG | -0.206 |
| TTAGGACTGGGTATGGGTTAGTGCTAG | -0.106 |
| TTAGGGATCGGACTGGGTTAGTGCTAG | -0.193 |
| GACGGATTGGACACTGGGGACGTGCTA | -0.358 |
| GACTATGCCGACTTTGGAAGTGTGCTA | -0.122 |
| GACGGAATCGGGACTGGGGACGTGCTA | -0.335 |

Series 2
Target: RNA binding protein fox-1 homolog 2, RRM domain, GST-SBP tag (RBFOX2, Homo sapiens, UniProt O43251-10, residues 100-194)
Method: RNA Bind-n-Seq
Form: RNA
Medium: in vitro
Tested at: 365 nM
Notes: natural RNA segment, single round, ends assumed
Baseline: no-protein control
Direction: higher = stronger binding
Constant ends, left off below: GGGAGUUCUACAGUCCGACGAUC … UGGAAUUCUCGGGUGCCAA
Construct (chain): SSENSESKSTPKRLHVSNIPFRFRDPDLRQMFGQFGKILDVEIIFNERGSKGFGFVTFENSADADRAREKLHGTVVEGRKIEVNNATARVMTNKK
| Oligonucleotide | RBNS enrichment (R) |
| --- | --- |
| CUAUCUGAGAACUCACAGAUUGUCUUUGCCUCUCUAGGCAGAAACAGAGCUACCCACUGCAGCGGCCUGACUGUGCAGCACUCAGCUCUUUGGCUCUCUCUGAAAUGCCC | 0.84 |
| CCGGUGCCCUGCGCGGGGCCUCCCCAGGACACACUGACGUAGAUUUGCUGUGUAGUCUUGGUGUGGAAAUUUGAAUUCUGCUUUUCUCUACUAAUCUGAAGUGCUCCGUG | 0.409 |
| UUUAUAUGGAAAUGUGUCUUGAUAAUAUUACCUAUUAAAUGUGUAUUUAUAGUCCCUCCUAUCAAACAAUUACAGAGCACAAUGAUUGUCAUUGGGUAUAUAUGUAUUUA | 0.614 |
| UUCAGUUAUGGUAAACUCUUAAAGUUCAGAACACUCAACAGAUUCCUUCAGUGAUAUACUUGUUCGUUCAUUUCUAAAAUGUGAAGCUUUAGGACCAAAUUGUUAGAAAG | 0.434 |
| GCUUACUGGAGAUGCACAGAGAAACAUGGCUGAAAACAGCUUUAAAAAGAACAUGUCUUUGGGUUCAUGUGUGGUGCUGCUGCCCGGGUGUAAACUAUCCCCACCCAGGG | 0.42 |
| CUUGACCUGACACUUGCAUUUUCUAGGCCACUCUUUGGGGUGGCUGAGAAUCAUGACAGACCCUCUGCCAGUCUCUAGUUUCUCUGGGUCAGGUUUCUGAGUACUGGCAU | 0.461 |
| UCUAACUACUUAUAAUAGUUUAUAAGCUCCUUAUGAAGAAAACCAGCAUUCUCUAUUUCUAAAGCCCACUUAUAACCCAGCAUACAAAUAGAUCUUAACAGUUUAUUAUU | 1.3 |
| UAGUAGAGCUGUCAGAAGAAGGCCACCGUCCUCCAGACAUCAGAAUGGUAUAUCCACUGACAGCUUGCACCAUGCACCUGGAAAAGCCACAGACACUCAACGCCAGCCUG | 0.353 |
| UAUGUUUGGUAAUAUCAUCUUGAAAAGUCCCUGUAAUAGAUCAAGGAGACUGCAUUCCCUGCCCUGAAGGAAUGUAUUUCUAAGGCAAAUAGGCAACUUGGUACUAUCUU | 0.574 |
| AACACCCCCCGUGUUAAUAACUUGGUCUGAAAUCUGUUUUUAUGAGCCGGGCCCCCUGUGCCUCUAGUAUACUUGUAUUGACUCUCAUAGUUACCCUUUUAGUUUUACUG | 0.282 |
| CUUUGCCUGUAGGAUGUACUGUAUGUAGUCAUGCACUUUGUAUUAAUAUAUUAGAAAUCUACAGAUCUGUUUUGUACUUUUUAUACUGUUGGAUACUUAUAAUCAAAACU | 30.5 |
| GGCUGAGAUCAAUAAAUUUAACACUAGACGAAGUAGACUUCCUGUCUUUUUGAGAAGAGAUGAGGUAUAUGUUACAAUAAAUCUCAGAACUUCAAGUAGCAGUUCAAAAG | 0.401 |

Series 3
Target: RING finger protein unkempt homolog, zinc fingers 1-6, SBP tag (UNK, Homo sapiens, UniProt Q9C0B0, residues 30-357)
Chain of UniProt Q9C0B0 (30-357, looked up): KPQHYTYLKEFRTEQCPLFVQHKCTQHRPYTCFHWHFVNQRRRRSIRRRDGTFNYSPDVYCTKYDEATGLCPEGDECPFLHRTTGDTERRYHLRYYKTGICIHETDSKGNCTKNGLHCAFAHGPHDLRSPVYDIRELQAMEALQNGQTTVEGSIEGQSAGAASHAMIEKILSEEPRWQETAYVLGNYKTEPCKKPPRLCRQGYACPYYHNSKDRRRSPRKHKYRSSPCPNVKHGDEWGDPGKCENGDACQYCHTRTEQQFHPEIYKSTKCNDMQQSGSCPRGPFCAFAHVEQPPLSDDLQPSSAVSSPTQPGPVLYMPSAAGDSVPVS
Method: RNA Bind-n-Seq
Form: RNA
Medium: in vitro
Tested at: 100 nM
Notes: RNA with constant flanks, vertebrate orthologous sites, ends assumed
Baseline: input RNA pool
Direction: higher = stronger binding
Constant ends, left off below: GGGAGUUCUACAGUCCGACGAUC … CAACAGAGGAUUGAGCAUCA
| Oligonucleotide | bound/input enrichment |
| --- | --- |
| UAUCCGUGUCAUACCAGCCUAUUAACCUCUUGUCUGUGCACAGCUUCAAAUGUUACCGUCUAGUUAGAUUUUUAUUUAAAAUAUGAAAAAACUGCUUUUCCCAAGAUGUUUUUUAAAAAC | 2.18 ratio |
| GUGUUUUGGUACCAUUCAAUGUACCAAUACUCAUCCUUUUUUCAUUAUACCAACUAUCGCUAGAAGUAGGAGUUUAAUAUUUUUAAAAAUUUUACAUUGCUGUAUAUUCAAAAUUUUAAA | 0.689 ratio |
| CUUAUUUUCAGGUUGGCUCUAGUGGAAAAGUUAUAGGAAUUGACCAUAUUAAAGAGCUAGUAGAUGACUCAAUAAAUAAUGUCAAAAAGGACGAUCCAGUGCUUUUGUCUUCAGGAAGAG | 0.577 ratio |
| UGUCUGCCUCAUUCUAAAAUUUACACAGUAGACCAUUUGUCAUCCAUGCUGUCCCACAAAUAGUUUUUUGUUUACGAUUUAUGACAGGUUUAUGUUACUUCUAUUUGAAUUUCUGUAUUU | 1.32 ratio |
| CUAUUGUGUGAAGCAUGUCUUUCCAGAGAAAUAACAUUAUAAAAGUAUUACUAAACAAUUUAAAGUCUUAAAGUUUUAAAUUAUAUGUCAAGCAAUGAAAGUGAAUUUGAGAGUGUAAGG | 0.415 ratio |
| AUCCUCUCACACUGUCCCCGGCCAGGGUUGAGGACCAGAUGUUUCACCAAGGACCUGCAUUUCACACAGUUUUUAAAAUUGUCAUACAGAUGUGACGAAAACAGCAUCUCAGAGCCGAGG | 0.257 ratio |
| GUGUUUUGCACAGGGCAUUCUCUGUACUAGUUUGUUGUGGUUAUAAAACAAUUAGCAAAACAGCUUACAUUUGUAUUUAUUUUCUAUUCCAUACUUCUCUGCCCAUGGUUUUUUUUUUCC | 1.13 ratio |
| GCAAUAAAAUUGGAUGAAAUUUAUAAACAAUUCAAGGCAGUGACUUAAGCUUCAUAAGUAUUGUUGGUUUUUAAGUGGUUUACCUUUAUUUAAGCUGCUGCCCUGUGUUAAAUAAUACUC | 0.433 ratio |
| AGGGAGGGCCCCCAAGUCCACCUCUCUUUGUUCUGUAAACCACAGCCUGUAAAUAAUGUUUAGCAUUCCUAUUGUAACAAAAUUAAUUUUUAUGAAAUAAAUUAUAUUUCCUAGUCUAAU | 0.645 ratio |
| AGCACCCCACGGAUUCAGGACUGGUUUUACAAAUACACCAAGUAGAUAUGGAAGUAACAGCAGAAUUGGACAACCAAGGCCAUGAUGUACUGUAACUUACUUUUACGAGGAUUAUUGACU | 0.349 ratio |
| CUCCCUGUUACCCCUAAAGGAGAACUUUUUAAAAUUAUGUCACCGCCACUUGUAAAAAUUUAGCAAUAUCAGAAGAAACCGCUAAUGAAGUAAGGAAUUUUGCUUAUUGUUUUGCAAACC | 0.417 ratio |

Series 4
Target: Histone acetyltransferase KAT6A, winged helix 1, GST fusion (KAT6A, Homo sapiens, UniProt Q92794, residues 1-85)
Method: protein binding microarray
Form: double-stranded DNA, one strand shown
Medium: in vitro
Tested at: not given
Notes: 8-mer, flanks averaged, mean of 2 arrays, mostly near background
Baseline: not given
Direction: higher = stronger binding
Residues (chain): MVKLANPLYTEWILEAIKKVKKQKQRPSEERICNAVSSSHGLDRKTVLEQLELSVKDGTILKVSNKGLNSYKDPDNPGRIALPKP
| Oligonucleotide | E-score |
| --- | --- |
| ATCGCCCC | 0.0772 |
| GAGACGGA | 0.0665 |
| ATGGCCCA | -0.179 |
| AGCATCTC | -0.173 |
| CCTGCACC | -0.116 |
| ACTCCCTC | -0.0442 |
| AGCGCGCT | 0.382 |
| ATAATAGC | -0.0927 |
| AGATATTC | -0.335 |
| GAGTGTTA | -0.0849 |
| CAGCACAC | -0.116 |
| GACTAAAA | -0.0477 |
| AACCGGAA | 0.202 |
| CAGTTCTA | -0.0439 |
| AGGTGGAT | -0.212 |
| AGCGAAGC | 0.0453 |
| GGCCTGAA | 0.0994 |
| AATTACAA | -0.168 |
| TCAACCCA | -0.134 |

Series 5
Target: PABPC1L2, full length, GST fusion (mouse, UniProt A0ABA7IW68)
Method: RNAcompete
Form: RNA
Medium: in vitro
Tested at: 20 nM
Notes: 7-mer, probes averaged, single round
Baseline: mean of 7-mers
Direction: higher = stronger binding
Residues (chain): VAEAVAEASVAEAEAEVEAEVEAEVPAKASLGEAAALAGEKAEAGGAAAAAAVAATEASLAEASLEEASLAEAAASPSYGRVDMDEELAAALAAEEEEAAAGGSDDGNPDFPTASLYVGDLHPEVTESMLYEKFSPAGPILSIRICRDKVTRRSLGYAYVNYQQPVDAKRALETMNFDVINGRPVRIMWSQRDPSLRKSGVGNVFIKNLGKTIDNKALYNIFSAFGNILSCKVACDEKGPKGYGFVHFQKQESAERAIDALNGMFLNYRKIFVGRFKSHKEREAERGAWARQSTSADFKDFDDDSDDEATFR
| Oligonucleotide | 7-mer Z-score |
| --- | --- |
| UCCCAGU | -0.262 |
| UGGGUUC | -0.22 |
| UUGAUGU | -0.258 |
| GUGAUGC | -0.0718 |
| GUUAGGA | -0.0645 |
| AUCUGCA | -0.0264 |
| CUAAUAC | -0.171 |
| ACAUCCA | -0.0971 |
| AGCGAUC | -0.0971 |
| CUGAAUG | -0.231 |
| GGACUAC | 0.254 |
| GAGGCGC | -0.0971 |
| GCUCAGU | -0.168 |
| UUGACGG | -0.0464 |
| CACACAG | -0.106 |
| UCUCGAC | -0.262 |
| CCCGCGC | -0.427 |
| CGCAAAA | 4.18 |
| CCAGAGU | -0.195 |
| UGGAUCA | -0.0917 |
| CUCAUGU | -0.307 |
| CACUAUU | -0.126 |
| UUAUCGA | -0.0935 |
| GCUCGAC | -0.253 |
| GAACCUG | -0.197 |

Some of these lines once more (series 5):
| Oligonucleotide | 7-mer Z-score |
| --- | --- |
| AGCGAUC | -0.0971 |
| GGACUAC | 0.254 |
| UCCCAGU | -0.262 |
| UGGAUCA | -0.0917 |
| GUGAUGC | -0.0718 |
| GAGGCGC | -0.0971 |
| CGCAAAA | 4.18 |
